Assay results pooled from the literature.
Parts stem from different laboratories: compare values within a part only. Positions count from the first letter of the parent shown.

Series 1
Target: CCNF, cyclin fold, Cln2 fusion (human)
Method: yeast growth competition, sequencing
Medium: yeast
Notes: strong parent motif
Relative to: not given
Direction: higher = stronger binding
Starting sequence: MICAL3 docking peptide (human); LQLRRQLSFSEDS
`Q6M`: “normalised enrichment score” 5.23.
`L7P`: “normalised enrichment score” 0.1.
`Q6R` — result for “normalised enrichment score”: 7.03.
Under “normalised enrichment score”, `L7F` is recorded as -0.434.
`L7D`: “normalised enrichment score” -0.635.
`D12V` — result for “normalised enrichment score”: 5.55.
Under “normalised enrichment score”, `F9N` is recorded as -0.0108.
`E11N` — result for “normalised enrichment score”: 5.19.
Under “normalised enrichment score”, `L7S` is recorded as -0.295.

Series 2
Target: Histone acetyltransferase KAT6A, both winged helices, GST fusion (KAT6A, Homo sapiens, UniProt Q92794, residues 1-181)
Method: protein binding microarray
Form: double-stranded DNA, one strand shown
Medium: in vitro
Concentration: not given
Notes: 8-mer, flanks averaged, mean of 2 arrays, mostly near background
Relative to: not given
Direction: higher = stronger binding
Residues (chain): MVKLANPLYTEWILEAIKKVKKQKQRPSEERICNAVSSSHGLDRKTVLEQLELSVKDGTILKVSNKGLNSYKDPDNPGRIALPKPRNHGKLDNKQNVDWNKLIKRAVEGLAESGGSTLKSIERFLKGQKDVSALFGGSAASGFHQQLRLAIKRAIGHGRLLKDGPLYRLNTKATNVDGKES
`CACCTCGG` gave an E-score of 0.0649.
The E-score of `AGATATTG` is reported as -0.212.
For `AGGAGACC`, the E-score was -0.0865.
`ACAATTGT` has an E-score of 0.0314.
With `AAACCGGA` the E-score was 0.0242.
With `AGCACGCG` the E-score was 0.215.
With `GGCGTCGA` the E-score was 0.199.
With `CACCAAAA` the E-score was -0.145.
With `ATCTAGCA` the E-score was -0.153.
The E-score of `CCGTTAGA` is reported as 0.208.
`ACCGGATG` has an E-score of 0.0867.
With `CCATTGGA` the E-score was -0.0922.
For `AAGCTCAG`, the E-score was -0.194.
`CAGCTATC` has an E-score of -0.108.

Series 3
Target: ABI1, truncated, D143A, DHFR fusion (Arabidopsis thaliana)
Method: DHFR PCA, deep sequencing
Medium: yeast
Notes: methotrexate growth selection, single substitutions
Together with: (+)-ABA 4.8 µM
Relative to: wild-type fitted maximum
Direction: higher = stronger binding
Starting sequence: PYL1, truncated, DHFR fusion (Arabidopsis thaliana); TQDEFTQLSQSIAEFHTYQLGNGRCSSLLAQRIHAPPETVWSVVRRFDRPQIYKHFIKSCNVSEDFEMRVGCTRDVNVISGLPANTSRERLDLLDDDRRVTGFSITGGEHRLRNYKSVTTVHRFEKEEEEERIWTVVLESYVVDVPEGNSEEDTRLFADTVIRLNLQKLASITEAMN; partner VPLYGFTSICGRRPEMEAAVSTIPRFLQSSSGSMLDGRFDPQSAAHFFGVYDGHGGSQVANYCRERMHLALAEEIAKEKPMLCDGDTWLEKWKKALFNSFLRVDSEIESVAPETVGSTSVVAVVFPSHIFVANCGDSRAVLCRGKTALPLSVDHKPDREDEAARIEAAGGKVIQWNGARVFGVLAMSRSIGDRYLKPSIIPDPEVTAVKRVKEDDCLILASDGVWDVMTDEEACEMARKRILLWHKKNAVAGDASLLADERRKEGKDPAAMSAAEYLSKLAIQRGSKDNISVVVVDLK
Under “relative binding score”, `D75R` is recorded as 63.5%.
For `P83Y`, “relative binding score” read 6.19%.
Under “relative binding score”, `E139I` is recorded as 49.6%.
Under “relative binding score”, `N165P` is recorded as -4.07%.
`D96E`: “relative binding score” 78.4%.
`S11Y`: “relative binding score” 70.8%.
Under “relative binding score”, `G148C` is recorded as 10.3%.
`C25D` — result for “relative binding score”: -9.32%.
For `S59G`, “relative binding score” read 52.8%.
For `L156H`, “relative binding score” read 54.3%.
`L91R` — result for “relative binding score”: 14.6%.
For `K126Q`, “relative binding score” read 83.8%.
`V137I` — result for “relative binding score”: 33%.

Other studies, line by line
`PhoQ, residues 284 288 289 292 302 303 SLANKL` gave a fold induction of 9.87 (PhoP, residues 12 14 15 18 19 LHSVW (Escherichia coli, UniProt P23836); Sort-seq, measured: YFP reporter; E. coli; PhoQ-PhoP variant library, together with: 10 µM Mg2+; relative to: high Mg2+ state, higher = stronger signaling).

Excerpt of the above (series 3):
For `S59G`, “relative binding score” read 52.8%.
Under “relative binding score”, `N165P` is recorded as -4.07%.
For `P83Y`, “relative binding score” read 6.19%.
For `L156H`, “relative binding score” read 54.3%.
